# Assay results from different studies.
# Protocols differ between the studies behind these lines. Several values in a cell are separate wells, animals, samples, runs or records. ± marks the error that the study gave.
# CASP8: Caspase-8 (CASP8, Homo sapiens, UniProt Q14790)
# Chain of UniProt Q14790 (whole entry, looked up): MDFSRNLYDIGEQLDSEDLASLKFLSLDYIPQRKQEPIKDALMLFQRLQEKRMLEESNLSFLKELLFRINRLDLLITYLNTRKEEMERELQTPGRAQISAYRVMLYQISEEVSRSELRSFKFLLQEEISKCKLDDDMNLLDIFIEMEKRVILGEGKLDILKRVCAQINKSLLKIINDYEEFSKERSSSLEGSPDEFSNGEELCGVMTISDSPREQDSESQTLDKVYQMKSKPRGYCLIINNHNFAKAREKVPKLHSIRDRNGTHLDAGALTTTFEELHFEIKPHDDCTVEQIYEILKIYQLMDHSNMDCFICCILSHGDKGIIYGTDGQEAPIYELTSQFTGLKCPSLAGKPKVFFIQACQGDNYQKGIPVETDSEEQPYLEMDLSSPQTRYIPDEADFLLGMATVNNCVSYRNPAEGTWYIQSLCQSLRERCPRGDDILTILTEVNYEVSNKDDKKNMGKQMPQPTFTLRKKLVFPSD
# TARDBP aggregated: TAR DNA-binding protein 43, aggregated (TARDBP, Homo sapiens, UniProt Q13148)
# Chain of UniProt Q13148 (whole entry, looked up): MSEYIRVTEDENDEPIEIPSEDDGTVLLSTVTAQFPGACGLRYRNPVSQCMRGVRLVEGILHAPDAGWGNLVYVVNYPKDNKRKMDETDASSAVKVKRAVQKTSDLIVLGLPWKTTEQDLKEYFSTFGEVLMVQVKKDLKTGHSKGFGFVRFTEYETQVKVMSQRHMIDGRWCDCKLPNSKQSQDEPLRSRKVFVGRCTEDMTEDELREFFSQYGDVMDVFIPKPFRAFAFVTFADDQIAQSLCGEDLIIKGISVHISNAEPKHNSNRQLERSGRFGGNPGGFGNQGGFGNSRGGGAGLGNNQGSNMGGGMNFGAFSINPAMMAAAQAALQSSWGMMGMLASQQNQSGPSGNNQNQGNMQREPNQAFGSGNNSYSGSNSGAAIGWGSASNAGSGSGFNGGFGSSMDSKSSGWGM
# CASP10: Caspase-10 (CASP10, Homo sapiens, UniProt Q92851)
# Chain of UniProt Q92851 (whole entry, looked up): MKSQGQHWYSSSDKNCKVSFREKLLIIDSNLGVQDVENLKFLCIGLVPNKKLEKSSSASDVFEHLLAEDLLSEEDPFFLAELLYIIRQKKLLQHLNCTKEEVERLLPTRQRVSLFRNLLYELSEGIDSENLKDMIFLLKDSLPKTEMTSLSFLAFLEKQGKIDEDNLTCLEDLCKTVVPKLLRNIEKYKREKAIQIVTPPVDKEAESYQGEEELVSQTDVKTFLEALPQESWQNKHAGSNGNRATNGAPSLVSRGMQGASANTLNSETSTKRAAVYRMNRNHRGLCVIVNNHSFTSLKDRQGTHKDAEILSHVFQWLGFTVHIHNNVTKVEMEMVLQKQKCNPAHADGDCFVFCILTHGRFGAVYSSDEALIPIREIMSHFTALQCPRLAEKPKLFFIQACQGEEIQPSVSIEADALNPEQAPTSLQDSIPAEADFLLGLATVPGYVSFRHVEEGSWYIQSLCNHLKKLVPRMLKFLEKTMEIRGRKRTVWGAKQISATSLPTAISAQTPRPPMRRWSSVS
# DCPS: m7GpppX diphosphatase (DCPS, Homo sapiens, UniProt Q96C86)
# Chain of UniProt Q92633 (whole entry, unmodified, looked up): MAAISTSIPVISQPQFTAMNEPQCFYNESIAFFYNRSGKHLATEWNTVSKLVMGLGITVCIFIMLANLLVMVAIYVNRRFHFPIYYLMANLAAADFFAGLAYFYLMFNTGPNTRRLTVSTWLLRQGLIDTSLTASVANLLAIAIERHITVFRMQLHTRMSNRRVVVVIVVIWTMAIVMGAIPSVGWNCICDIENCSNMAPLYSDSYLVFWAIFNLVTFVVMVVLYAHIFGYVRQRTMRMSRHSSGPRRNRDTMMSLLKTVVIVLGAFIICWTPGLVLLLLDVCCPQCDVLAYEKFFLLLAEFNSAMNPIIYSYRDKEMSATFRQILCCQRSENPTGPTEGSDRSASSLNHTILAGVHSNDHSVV
# Chain of UniProt Q7M759 (whole entry, looked up): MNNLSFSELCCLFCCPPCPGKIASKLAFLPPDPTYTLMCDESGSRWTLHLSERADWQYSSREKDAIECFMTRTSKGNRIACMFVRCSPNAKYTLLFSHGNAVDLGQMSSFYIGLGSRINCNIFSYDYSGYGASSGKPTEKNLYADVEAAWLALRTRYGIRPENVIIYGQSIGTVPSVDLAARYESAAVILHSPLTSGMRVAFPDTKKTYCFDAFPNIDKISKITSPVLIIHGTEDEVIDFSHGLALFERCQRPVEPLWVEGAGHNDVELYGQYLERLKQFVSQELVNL
# Chain of UniProt P45983 (whole entry, looked up): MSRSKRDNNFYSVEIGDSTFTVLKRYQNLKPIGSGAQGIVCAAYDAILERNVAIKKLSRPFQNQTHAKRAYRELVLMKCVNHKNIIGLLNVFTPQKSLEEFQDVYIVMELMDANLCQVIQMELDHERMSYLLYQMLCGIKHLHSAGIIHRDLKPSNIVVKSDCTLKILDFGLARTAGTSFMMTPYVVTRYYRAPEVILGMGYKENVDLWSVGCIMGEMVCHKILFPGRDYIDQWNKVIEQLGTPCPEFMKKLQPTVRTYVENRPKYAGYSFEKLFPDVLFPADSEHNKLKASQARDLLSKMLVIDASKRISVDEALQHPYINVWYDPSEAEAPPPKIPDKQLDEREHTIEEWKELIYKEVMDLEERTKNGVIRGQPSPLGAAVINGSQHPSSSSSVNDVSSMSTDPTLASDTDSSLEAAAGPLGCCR
# Chain of UniProt Q96C86 (whole entry, looked up): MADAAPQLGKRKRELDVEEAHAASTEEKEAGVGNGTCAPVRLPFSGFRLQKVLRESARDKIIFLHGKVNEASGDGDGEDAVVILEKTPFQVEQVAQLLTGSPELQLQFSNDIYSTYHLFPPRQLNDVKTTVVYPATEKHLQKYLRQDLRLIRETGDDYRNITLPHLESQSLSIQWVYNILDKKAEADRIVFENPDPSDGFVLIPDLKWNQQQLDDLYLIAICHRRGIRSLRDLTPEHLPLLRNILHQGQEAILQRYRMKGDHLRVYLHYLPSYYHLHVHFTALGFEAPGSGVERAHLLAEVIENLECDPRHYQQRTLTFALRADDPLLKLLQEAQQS
# Chain of UniProt P35821 (whole entry, looked up): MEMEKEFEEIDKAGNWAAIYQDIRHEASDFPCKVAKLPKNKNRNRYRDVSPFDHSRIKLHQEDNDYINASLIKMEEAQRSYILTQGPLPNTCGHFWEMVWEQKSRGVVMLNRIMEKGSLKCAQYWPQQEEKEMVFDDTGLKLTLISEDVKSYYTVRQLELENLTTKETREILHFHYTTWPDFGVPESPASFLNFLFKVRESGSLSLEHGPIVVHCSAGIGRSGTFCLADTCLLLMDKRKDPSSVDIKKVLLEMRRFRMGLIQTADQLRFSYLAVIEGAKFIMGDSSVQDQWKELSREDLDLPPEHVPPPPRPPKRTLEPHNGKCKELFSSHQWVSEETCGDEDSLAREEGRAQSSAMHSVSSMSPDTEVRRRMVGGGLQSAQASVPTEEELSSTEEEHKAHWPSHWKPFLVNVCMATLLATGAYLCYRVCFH
# Chain of UniProt O15164 (whole entry, unmodified, looked up): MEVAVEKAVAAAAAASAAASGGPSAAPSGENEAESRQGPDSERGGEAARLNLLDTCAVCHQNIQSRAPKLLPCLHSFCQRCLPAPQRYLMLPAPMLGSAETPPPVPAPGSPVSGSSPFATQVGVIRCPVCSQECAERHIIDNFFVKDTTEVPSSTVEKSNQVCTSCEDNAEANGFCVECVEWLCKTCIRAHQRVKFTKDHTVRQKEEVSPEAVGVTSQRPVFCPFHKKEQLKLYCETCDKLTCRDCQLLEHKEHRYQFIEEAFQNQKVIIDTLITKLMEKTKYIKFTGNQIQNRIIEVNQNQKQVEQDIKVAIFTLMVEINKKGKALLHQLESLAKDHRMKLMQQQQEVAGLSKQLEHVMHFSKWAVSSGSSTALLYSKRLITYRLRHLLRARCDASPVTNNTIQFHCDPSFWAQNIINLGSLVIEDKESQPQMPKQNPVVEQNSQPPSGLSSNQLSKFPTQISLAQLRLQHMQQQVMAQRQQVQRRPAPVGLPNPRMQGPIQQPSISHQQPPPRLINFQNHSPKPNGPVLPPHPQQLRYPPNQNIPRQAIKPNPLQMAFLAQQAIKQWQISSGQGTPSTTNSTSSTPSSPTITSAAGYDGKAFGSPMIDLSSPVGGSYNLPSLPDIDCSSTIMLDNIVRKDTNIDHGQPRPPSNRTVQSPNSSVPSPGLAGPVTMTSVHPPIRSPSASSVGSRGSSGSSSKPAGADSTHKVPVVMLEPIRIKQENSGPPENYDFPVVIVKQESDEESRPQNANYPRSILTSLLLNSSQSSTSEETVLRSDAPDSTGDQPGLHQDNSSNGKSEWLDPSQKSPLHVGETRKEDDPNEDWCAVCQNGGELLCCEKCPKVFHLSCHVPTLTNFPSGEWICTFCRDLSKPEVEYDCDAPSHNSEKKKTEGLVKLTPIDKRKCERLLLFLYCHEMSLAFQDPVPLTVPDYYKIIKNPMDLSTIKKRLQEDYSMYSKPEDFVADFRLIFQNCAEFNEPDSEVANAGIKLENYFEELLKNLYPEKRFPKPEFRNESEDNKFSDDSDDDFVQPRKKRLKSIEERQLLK
# Chain of UniProt P20782 (whole entry, unmodified, looked up): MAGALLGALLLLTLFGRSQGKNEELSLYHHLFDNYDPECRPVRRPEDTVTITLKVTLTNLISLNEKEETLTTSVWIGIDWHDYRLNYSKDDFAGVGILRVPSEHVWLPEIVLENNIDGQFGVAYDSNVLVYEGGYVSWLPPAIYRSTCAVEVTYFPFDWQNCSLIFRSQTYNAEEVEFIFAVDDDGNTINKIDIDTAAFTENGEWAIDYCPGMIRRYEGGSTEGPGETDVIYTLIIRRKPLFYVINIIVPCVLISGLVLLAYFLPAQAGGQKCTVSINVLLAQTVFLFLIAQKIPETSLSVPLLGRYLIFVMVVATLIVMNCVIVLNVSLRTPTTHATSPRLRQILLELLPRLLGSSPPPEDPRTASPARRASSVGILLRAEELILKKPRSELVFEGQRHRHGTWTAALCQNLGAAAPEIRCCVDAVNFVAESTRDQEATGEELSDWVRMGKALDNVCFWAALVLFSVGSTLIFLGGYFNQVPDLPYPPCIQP
Compound,target,test,test system,conditions,how to read,endpoint,value
Cc1cc(C)cc(COc2cc3c(cc2OCc2cc(C)cc(C)c2)C2CC(O)(Cc4cn(CCOCCOCCNC(=O)CCCCC5SCC6NC(=O)NC65)nn4)CC(C)N2CC3)c1 (stereo not drawn),"Importin subunit alpha-1 (Homo sapiens, UniProt P52292)","biotinylated probe pull-down, refers to: KPNA2",,10 µM probe,baseline: heavy over light,SILAC ratio,1.7
N#CN1CC[C@H](C(=O)Nc2nc3c(s2)CN(C(=O)Cn2cc(COCCOCCOCCOCCNC(=O)CCCC[C@@H]4SC[C@@H]5NC(=O)N[C@@H]54)nn2)CC3)C1,"Protein-L-isoaspartate(D-aspartate) O-methyltransferase (PCMT1, Homo sapiens, UniProt P22061)","probe binding, affinity probe, neutravidin pull-down LC-MS/MS","HEK293T, cell lysate","5 µM, 1 h, mean of three replicates, unit not given",higher = more pulled down,iBAQ abundance,2.9e+08
N=C(N)NCCS(=O)(=O)O,"Sodium- and chloride-dependent taurine transporter (SLC6A6, Homo sapiens, UniProt P31641, Y138A)","binding, microscale thermophoresis",,"500 µM, room temperature, together with: 50 nM labelled protein",higher = more binding,normalised MST signal,-0.0173
CCN(CC)C(CO)c1cccc2c(C)c(C)oc12 (stereo not drawn),"Lysophosphatidic acid receptor 1 (LPAR1, Homo sapiens, UniProt Q92633, W210A)","G-protein dissociation, agonist, NanoBiT",HEK-293T,"100 nM, W210A mutant",baseline: baseline luminescence,fold change,0.795 and 0.989 and 0.966 and 0.855 and 0.823 and 0.769
CC(=O)N[C@@H](CC(=O)O)C(=O)N[C@H](C(=O)N[C@@H](C)C(=O)N[C@@H](CC(=O)O)C(=O)COC(=O)c1c(C)cccc1C)[C@@H](C)OCc1ccccc1,CASP8,"enzyme activity, inhibitor",,,,kinact/KI,191000 M⁻¹ s⁻¹
CCCCCCCCCCCCC/C=C/C=O,"Bleomycin hydrolase (Homo sapiens, UniProt Q13867)",competitive isoTOP-ABPP,Ramos soluble proteome,"100 µM, 60 min, together with: iodoacetamide probe","baseline: DMSO over compound-treated, higher = stronger cysteine blockade",isoTOP-ABPP competition ratio,1
CC(C)[C@@H]1NC(=O)[C@H](Cc2ccccc2)NC(=O)CSC[C@@H](C(N)=O)NC(=O)[C@H](CCC(=O)O)NC(=O)[C@H](CO)NC(=O)[C@H](Cc2c[nH]c3cccc(Cl)c23)NC(=O)[C@H](C2CCCCC2)NC(=O)[C@H](C(C)C)NC(=O)[C@H](Cc2ccc(O)cc2)NC(=O)[C@H](CC(=O)O)NC(=O)[C@H](Cc2c[nH]c3ccccc23)NC(=O)[C@H](Cc2ccc(N)nc2)NC(=O)[C@H](Cc2c[nH]c3ccc(Cl)cc23)NC(=O)[C@H](CCC(=O)O)NC1=O,"Interleukin-1 receptor-like 2 (IL1RL2, Homo sapiens, UniProt Q9HB29)","reporter gene (SEAP), inhibitor, HEK-Blue IL-36R reporter",HEK-Blue IL-36R cells,"0.046 µM, 6 h, together with: IL-36γ 0.01 ng/mL",,remaining activity,28.3%
CC(=O)N[C@@H](Cc1ccccc1)C(=O)N[C@@H](CC(=O)O)C(=O)N[C@@H](CCC(=O)O)C(=O)N1CCC[C@H]1C(=O)N[C@@H](CC(=O)O)C(=O)COC(=O)c1c(C)cccc1C,CASP8,"enzyme activity, inhibitor",,,,kinact/KI,1.51e+06 M⁻¹ s⁻¹
C=CS(=O)(=O)c1ccc(Nc2nc(OCC3CCCCC3)c3nc[nH]c3n2)cc1,"Gasdermin-D (GSDMD, Homo sapiens, UniProt P57764)","thermal stability, DSF",,10 µM,,ΔTm,5.7 °C
CC[C@H](C)[C@H](NC(=O)[C@@H](NC(=O)[C@@H](NC(=O)[C@@H](NC(=O)[C@H](CCCCN)NC(=O)[C@H](CCC(=O)O)NC(=O)[C@H](C)N)C(C)C)C(C)C)C(C)C)C(=O)N[C@H](C(=O)N[C@@H](CCCCN)C(N)=O)[C@@H](C)O,"Microtubule-associated protein tau, PHF6* peptide (MAPT, Homo sapiens, UniProt P10636)","fibril formation, ThT fluorescence",,"1-fold of peptide, pH 7.4, together with: Ac-PHF6* 25 µM, heparin",baseline: untreated,ThT fluorescence,114 ± 4%
O=c1c(-c2ccc(F)cc2)coc2cc(O)ccc12,"3 beta-hydroxysteroid dehydrogenase/Delta 5-->4-isomerase type 1 (HSD3B1, Homo sapiens, UniProt P14060)",[3H]-DHEA conversion,LNCaP,"0.1 µM, normalized to protein, unit not given",baseline: vehicle,DHEA metabolism,0.91
C[N+]1(C)CCCC1,"Chrnd/Chrna1/Chrne (Mus musculus, UniProt P02716+P04756+P20782, G173A/S470W)","binding, agonist, single-channel recording",,binding site chain A side,,kon,1.49e+07 M⁻¹ s⁻¹
COc1ncc2nc(C)n(Cc3ncc(S(N)(=O)=O)cc3F)c2c1-c1ccccc1,"GABA-A receptor; alpha-1/beta-2/gamma-2 (Homo sapiens, UniProt P14867+P18507+P47870)","agonist, cell-based",,10 µM,,activation,0.28%
CC1(C)C[C@@H](Nc2cccc(-c3sc(C(=O)O)c(OCC(=O)O)c3Cl)c2)CCN1S(=O)(=O)Cc1cccc(NC(=O)CN2CCC(c3ccc4c(c3)oc(=O)n4C3CCC(=O)NC3=O)CC2)c1 (stereo partly drawn),"Tyrosine-protein phosphatase non-receptor type 1 (Mus musculus, UniProt P35821)","degrader, Western blot",B16-F10,0.1 µM,,remaining protein,45.9% and 46.2%
CC(=O)N[C@@H](CC(=O)O)C(=O)N[C@@H](Cc1ccc(I)cc1)C(=O)N[C@@H](C)C(=O)N[C@@H](CC(=O)O)C(=O)COC(=O)c1c(C)cccc1C,CASP8,"enzyme activity, inhibitor",,,,kinact/KI,34000 M⁻¹ s⁻¹
C[Si](C)(C)C[C@@H](CN)CC(=O)O,"Adenosine receptor A2b (ADORA2B, Homo sapiens, UniProt P29275)","ligand displacement, radioligand",,75 µM,,inhibition,2%
O=C(N1CCCC1)n1cc(-c2ccc(-c3ccccc3)cc2)nn1,"Alpha/beta hydrolase domain-containing protein 17B (Abhd17b, Mus musculus, UniProt Q7M759)","probe labelling, inhibitor, competitive ABPP-SILAC, refers to: Fam108b1",mouse T cells,"concentration not given, 4 h, in situ, single peptide","baseline: treated over DMSO, lower = more inhibition",SILAC ratio,1.18 and 1.31 and 1.13
O=C1c2sc(-c3ccc(N4CCC(CO)CC4)nc3F)nc2CCN1c1cccnc1,TARDBP aggregated,radioligand binding,control brain sarkosyl-insoluble extract,200 nM,,specific binding,0.274 nM
CC(=O)N[C@@H](CC(C)C)C(=O)N[C@@H](CCC(=O)O)C(=O)N[C@@H](COCc1ccccc1)C(=O)N[C@@H](CC(=O)O)C(=O)COC(=O)c1c(C)cccc1C,CASP10,"enzyme activity, inhibitor",,,,kinact/KI,404000 M⁻¹ s⁻¹
COc1cc(-c2cn(C)c(=O)c3cnccc23)cc(OC)c1CN(C)C,"Transcription intermediary factor 1-alpha (TRIM24, Homo sapiens, UniProt O15164)",,,,,ΔTm,0.4 °C
CC[C@H](C)[C@H](NC(C)=O)C(=O)N[C@@H](CCC(=O)O)C(=O)N[C@H](C(=O)N[C@@H](CC(=O)O)C(=O)COC(=O)c1c(C)cccc1C)[C@@H](C)O,CASP8,"enzyme activity, inhibitor",,,,kinact/KI,1.14e+06 M⁻¹ s⁻¹
COC(=O)[C@@]1(C)C=C(C(=O)Nc2cccc(C(=O)Nc3ccc(Nc4nccc(-c5cccnc5)n4)c(C)c3)c2)C(=O)CC1,"Mitogen-activated protein kinase 8, docking groove (MAPK8, Homo sapiens, UniProt P45983)","peptide binding, inhibitor, fluorescence polarization",,"3.125 µM, together with: JIP1 peptide probe",,normalized fluorescence polarization,0.925
C#CCOC(=O)[C@@]1(C)C=C(C(=O)OC(C)(C)C)C(=O)CC1,"Mitogen-activated protein kinase 8 (MAPK8, Homo sapiens, UniProt P45983)","enzyme activity, D-SENSOR",,"133.3 µM, single replicate",,normalized kinase activity,0.389 and 0.486 and 0.501
O=c1cc(NCCCO)c2ccccc2o1,"Alpha-1A adrenergic receptor (ADRA1A, Homo sapiens, UniProt P35348)","calcium mobilization, agonist",COS-7,500 µM,baseline: 3 µM ionomycin,agonist activity,1.18 ± 0.42%
C[n+]1cn(C2OC(COP(=O)(O)OP(=O)([O-])C(F)(F)P(=O)(O)OP(=O)(O)OCC3OC(n4cnc5c(=O)[nH]c(N)nc54)C(O)C3O)C(O)C2O)c2nc(N)nc(O)c21 (stereo not drawn),DCPS,"substrate, HPLC",,"concentration not given, 30 min",,hydrolysis,26.2 ± 0.4%
O=C(CC1CC2CCC1C2)NCCNC(=O)Cn1c(=O)[nH]c(=O)c2ccccc21 (stereo not drawn),"Poly [ADP-ribose] polymerase 1 (PARP1, Homo sapiens, UniProt P09874)","enzyme activity, inhibitor",,0.104 µM,,inhibition,86%
C=CC(=O)N1C[C@H](C)N(c2nc(OC[C@@]34CCCN3C[C@H](F)C4)nc3c(F)c(-c4ccc(F)c5sc(N)c(C#N)c45)c(C(F)(F)F)cc23)C[C@H]1C,"GTPase KRas, GDP-bound (KRAS, Homo sapiens, UniProt P01116, Q61H)",SPR,,,,dissociation rate constant koff,0.000801 ± 0.00014 s⁻¹
CC[C@H](C)[C@H](NC(=O)[C@H](CCC(N)=O)NC(=O)[C@@H](NC(=O)[C@@H]1CCCN1[C@@H]1CN(C(=O)[C@H](CCCCN)NC(=O)[C@H](CC(N)=O)NC(=O)[C@@H](NC(=O)[C@@H](NC(=O)[C@H](CCC(N)=O)NC(=O)[C@@H](N)C(C)C)[C@@H](C)CC)[C@@H](C)CC)CC[C@H]1NS(=O)(=O)c1ccc(C)cc1)C(C)C)C(=O)N[C@H](C(=O)N[C@@H](Cc1ccc(O)cc1)C(=O)N[C@@H](CCCCN)C(N)=O)C(C)C,"Microtubule-associated protein tau (MAPT, Homo sapiens, UniProt P10636)","fibril formation, ThT fluorescence",,"5-fold of tau, at plateau, together with: wild-type tau 10 µM, heparin",baseline: untreated,ThT fluorescence,3 ± 2%
O=C1c2sc(-c3ccc(N4CCC(F)C4)nc3F)nc2CCN1c1cccnc1 (stereo not drawn),TARDBP aggregated,radioligand binding,"human, FTLD-TDP type B extract",together with: radioligand 72.89 nM,,specific binding,5.39 nM and 4.51 nM
Cc1cn(CC(=O)N(CC(=O)N[C@H]2CCC[C@@H]2N(CC(=O)N[C@H]2COC[C@@H]2N(CC(=O)N[C@H]2COC[C@@H]2N(CC(=O)N[C@H]2COC[C@@H]2N(CC(=O)NCCOCCOCC(N)=O)C(=O)Cn2cnc3c(N)ncnc32)C(=O)Cn2cc(C)c(=O)[nH]c2=O)C(=O)Cn2cnc3c(N)ncnc32)C(=O)Cn2cnc3c(=O)[nH]c(N)nc32)[C@H]2CCC[C@@H]2NC(=O)CN(C(=O)Cn2cnc3c(=O)[nH]c(N)nc32)[C@H]2CCC[C@@H]2NC(=O)CN(C(=O)Cn2cc(C)c(=O)[nH]c2=O)[C@H]2COC[C@@H]2NC(=O)CN(C(=O)Cn2cnc3c(N)ncnc32)[C@H]2COC[C@@H]2NC(=O)CN(C(=O)Cn2cnc3c(=O)[nH]c(N)nc32)[C@H]2COC[C@@H]2N)c(=O)[nH]c1=O,complementary DNA,"duplex formation, UV melting curve fit",PBS,"1 µM, 298 K",,ΔG,-20.9 ± 0.3 kcal/mol
CC(=O)N[C@@H](CC(C)C)C(=O)N[C@@H](Cc1ccccc1)C(=O)N[C@@H](CO)C(=O)N[C@@H](CC(=O)O)C(=O)COC(=O)c1c(C)cccc1C,CASP8,"enzyme activity, inhibitor",,,,kinact/KI,82000 M⁻¹ s⁻¹
O=C(NO)c1ccc(Cn2c3c(c4cc(Br)ccc42)SC(c2ccccc2)C3)s1 (racemic),"Histone deacetylase 8 (Schistosoma mansoni, UniProt A5H660)",X-ray crystallography,,"ligand-Lys20 side chain, C3-NZ",,interatomic distance,3.95 Å
CC(=O)N[C@@H](CC(C)C)C(=O)N[C@H](C(=O)N[C@@H](C)C(=O)N[C@@H](CC(=O)O)C(=O)COC(=O)c1c(C)cccc1C)C(C)(C)C,CASP8,"enzyme activity, inhibitor",,,,kinact/KI,2.28e+06 M⁻¹ s⁻¹
C[n+]1cn([C@@H]2O[C@H](COP(=O)(O)OP(=O)([O-])OP(=O)(O)O)[C@@H](O)[C@H]2O)c2nc(N)nc(O)c21,DCPS,"substrate, HPLC",,"concentration not given, 30 min",,hydrolysis,22.3 ± 1.6%
CCCCCC(O)/C=C/C=O (stereo not drawn),"Exportin-2 (Homo sapiens, UniProt P55060)","competitive isoTOP-ABPP, refers to: CSE1L cysteine peptide","proteome, soluble, MDA-MB-231","100 µM, together with: iodoacetamide probe","baseline: DMSO over compound-treated, higher = stronger cysteine blockade",isoTOP-ABPP competition ratio,1.7
CC(=O)N[C@@H](CC(=O)O)C(=O)N[C@@H](Cc1ccccc1)C(=O)N[C@H](C(=O)N[C@@H](CC(=O)O)C(=O)COC(=O)c1c(C)cccc1C)C(C)(C)C,CASP10,"enzyme activity, inhibitor",,,,kinact/KI,32000 M⁻¹ s⁻¹

# Repeated from above:
Compound,target,test,test system,conditions,how to read,endpoint,value
C#CCOC(=O)[C@@]1(C)C=C(C(=O)OC(C)(C)C)C(=O)CC1,"Mitogen-activated protein kinase 8 (MAPK8, Homo sapiens, UniProt P45983)","enzyme activity, D-SENSOR",,"133.3 µM, single replicate",,normalized kinase activity,0.389 and 0.486 and 0.501
CC(=O)N[C@@H](CC(=O)O)C(=O)N[C@@H](Cc1ccccc1)C(=O)N[C@H](C(=O)N[C@@H](CC(=O)O)C(=O)COC(=O)c1c(C)cccc1C)C(C)(C)C,CASP10,"enzyme activity, inhibitor",,,,kinact/KI,32000 M⁻¹ s⁻¹
